Published values of several laboratories.
Every numbered part comes from another study and shows a few of its results, in no order. Changes are numbered by the printed parent chain.

Study 1
Target: CCNB1, cyclin fold, Cln2 fusion (human)
Method: yeast growth competition, sequencing
Medium: yeast
Setting: weak parent motif
Reference: not given
Direction: higher = stronger binding
Parent: SLBP docking peptide (human); ARYKRKLLINDFG
Substitution	normalised enrichment score
ARYKRKLIINDFG [L8I]	0.886
ARRKRKLLINDFG [Y3R]	0.603
ARYKRKLWINDFG [L8W]	0.34
ARYKRKLLFNDFG [I9F]	0.758
ARYKRKLLIRDFG [N10R]	0.226
ARDKRKLLINDFG [Y3D]	0.508
ARYKRPLLINDFG [K6P]	-0.159

Study 2
Target: Sal-like protein 4, full length isoform A (SALL4, Homo sapiens, UniProt Q9UJQ4, residues 1-1053)
UniProt Q9UJQ4, sequence (whole entry, looked up): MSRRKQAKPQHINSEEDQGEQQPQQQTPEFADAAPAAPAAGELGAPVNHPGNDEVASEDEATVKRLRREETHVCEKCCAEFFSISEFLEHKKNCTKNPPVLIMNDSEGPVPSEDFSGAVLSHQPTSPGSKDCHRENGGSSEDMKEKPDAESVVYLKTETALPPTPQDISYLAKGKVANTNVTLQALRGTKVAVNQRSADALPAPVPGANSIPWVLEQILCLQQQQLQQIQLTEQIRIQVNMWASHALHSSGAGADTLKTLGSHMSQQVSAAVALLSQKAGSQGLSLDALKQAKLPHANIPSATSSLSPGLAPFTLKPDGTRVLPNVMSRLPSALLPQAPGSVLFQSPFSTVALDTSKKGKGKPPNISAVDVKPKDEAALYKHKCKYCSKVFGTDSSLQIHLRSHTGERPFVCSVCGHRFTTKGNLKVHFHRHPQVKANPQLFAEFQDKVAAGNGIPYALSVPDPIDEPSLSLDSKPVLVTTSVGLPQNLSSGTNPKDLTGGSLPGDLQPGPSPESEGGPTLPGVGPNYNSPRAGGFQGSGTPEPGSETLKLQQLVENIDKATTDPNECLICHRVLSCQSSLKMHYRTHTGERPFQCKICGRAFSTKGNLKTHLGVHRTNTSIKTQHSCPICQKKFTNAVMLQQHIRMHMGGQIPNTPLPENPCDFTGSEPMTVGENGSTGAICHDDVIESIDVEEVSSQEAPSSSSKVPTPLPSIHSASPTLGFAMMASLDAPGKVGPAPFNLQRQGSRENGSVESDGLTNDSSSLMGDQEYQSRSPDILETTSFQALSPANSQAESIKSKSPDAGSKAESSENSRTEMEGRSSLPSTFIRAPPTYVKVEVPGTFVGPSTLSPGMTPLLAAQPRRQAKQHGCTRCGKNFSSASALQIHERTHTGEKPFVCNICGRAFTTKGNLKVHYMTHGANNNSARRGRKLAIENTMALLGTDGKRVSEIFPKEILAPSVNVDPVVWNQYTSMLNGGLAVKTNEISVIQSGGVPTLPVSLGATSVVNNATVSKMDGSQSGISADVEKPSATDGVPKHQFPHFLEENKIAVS
Method: universal PBM
Molecule type: double-stranded DNA, one strand shown
Medium: in vitro
Concentration: 600 nM
Setting: 8-mer, flanks averaged, mean of replicates
Direction: higher = stronger binding
Oligonucleotide	E-score
AACACGTA	0.227
ACCCGTCT	-0.261
AAACTGCC	-0.0679
AGATATCT	0.212
ATGTTGGA	0.177
CTAAAGAA	0.111
CAGCGCAG	-0.181
CATAACGA	0.15
ATGTGGAA	0.195

Study 3
Target: ABI1, truncated, D143A, DHFR fusion (Arabidopsis thaliana)
Method: DHFR PCA, deep sequencing
Medium: yeast
Setting: methotrexate growth selection, single substitutions
Added: (+)-ABA 0 µM
Reference: wild-type fitted maximum
Direction: higher = stronger binding
Parent: PYL1, truncated, DHFR fusion (Arabidopsis thaliana); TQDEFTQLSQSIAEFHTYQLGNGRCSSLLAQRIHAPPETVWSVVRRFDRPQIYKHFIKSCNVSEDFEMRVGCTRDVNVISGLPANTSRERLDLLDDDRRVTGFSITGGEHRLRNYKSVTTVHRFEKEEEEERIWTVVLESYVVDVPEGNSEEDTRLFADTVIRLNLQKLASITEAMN; partner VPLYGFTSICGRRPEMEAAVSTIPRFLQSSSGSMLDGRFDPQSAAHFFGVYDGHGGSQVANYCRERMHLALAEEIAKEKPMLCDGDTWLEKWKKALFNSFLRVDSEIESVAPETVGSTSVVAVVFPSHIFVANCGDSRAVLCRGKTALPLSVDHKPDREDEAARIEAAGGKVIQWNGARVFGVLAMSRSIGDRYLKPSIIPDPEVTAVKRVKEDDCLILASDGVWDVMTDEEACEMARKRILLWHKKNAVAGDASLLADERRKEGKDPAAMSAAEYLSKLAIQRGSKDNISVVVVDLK
Substitution	relative binding score [%]
N61P	-1.56
I33P	2.95
R24I	4.98
G108E	-5.09
A170E	1.69
P50M	-3.91

Further values, each from its own experiment
Molecule	target	assay	test system	conditions	scale	endpoint	result
PhoQ, residues 284 288 289 292 302 303 QWGLFV	PhoP, residues 12 14 15 18 19 LHSVQ (Escherichia coli, UniProt P23836)	Sort-seq, refers to: YFP reporter	E. coli	PhoQ-PhoP variant library, added: 10 µM Mg2+	reference: high Mg2+ state, higher = stronger signaling	fold induction	1.08
